Published values from different studies.
Each line is one published result; not all experiments were run side by side. ± marks the error that the study gave.
Cell line: DU-145

O=C(N=P12CN3CN(CN(C3)C1)C2)c1ccccn1.[Cl][Pt][Cl]  IC50 (cell growth or viability, MTT; 24 h): 65.3 µM
C1=CCCC=CCC1.C1=CCCC=CCC1.O=C(N=P12CN3CN(CN(C3)C1)C2)c1cccc[c]1[Pt+].O=C(N=P12CN3CN(CN(C3)C1)C2)c1cccc[c]1[Pt+].[Cl][Hg-]([Cl])[Cl].[Cl][Hg-]([Cl])[Cl].[Cl][Hg][Cl].[Cl][Hg][Cl]  IC50 (cell growth or viability, MTT; 24 h): 22.5 µM
CC(=O)[C@@H]1CCCN1C(=O)[C@@H]1CCCN1C(=O)[C@H](Cc1ccccc1)NC(=O)[C@@H](NC(=O)[C@@H](NC(=O)[C@@H](NC(=O)[C@@H]1CCCN1C(=O)[C@H](C)NC(=O)OC(C)(C)C)C(C)C)C(C)C)C(C)C  IC50 (cell growth or viability, SRB): 1 µM
CC1(CCCO[C@H]2O[C@H](CO)[C@@H](O)[C@H](O)[C@H]2O)C(=O)[O][Pt][O]C1=O.N[C@@H]1CCCC[C@H]1N  IC50 (cell growth or viability, MTT): 3.7 µM
CN(C)CC1C(=O)OC2C1CCC1(C)CC1CCC1(C)OC21 (centres unmarked)  IC50 (cell growth or viability, resazurin): 13.3 µM
CC1(CCCOC2C(O)C(O)OC(CO)C2O)C(=O)[O][Pt][O]C1=O.NC1CCCCC1N (mixture of isomers)  IC50 (cytotoxicity, MTT; 7.5 h plus 64 h recovery): 26 ± 4 µM
O=C(N=P12CN3CN(CN(C3)C1)C2)c1cccc[c]1[Pd]([Br])([PH]12CN3CN(CN(C3)C1)C2)[PH]12CN3CN(CN(C3)C1)C2  IC50 (cell growth or viability, MTT; 24 h): 448 µM
C#CCCCC[C@H](C)C[C@@H](C)C(=O)N(C)[C@H](C(=O)N(C)[C@@H](Cc1ccccc1)C(=O)N1CCC[C@H]1C(=O)N1CCC[C@H]1C(C)=O)C(C)C  IC50 (cell growth or viability, SRB): 1 µM
O=C(Nc1ccc(Br)cc1)c1cc(Br)cc(Br)c1O  IC50 (cell growth or viability, resazurin; 72 h): 6.45 µM
CC1(CCCOC2C(O)OC(CO)C(O)C2O)C(=O)[O][Pt][O]C1=O.NC1CCCCC1N (mixture of isomers)  IC50 (cell growth or viability, MTT): 2.8 µM
CC(=O)NCCCCCCCC(=O)N[C@@H](CC(C)C)C(=O)N[C@@H](CC(C)C)C(=O)N[C@@H](CC(C)C)C(=O)N[C@@H](CC(C)C)C(=O)N[C@@H](CCCNC(=N)N)C(=O)N[C@H](C(=O)N[C@@H](CCCCN)C(=O)N[C@@H](CCCNC(=N)N)C(N)=O)C(C)C  IC50 (cell growth or viability, MTT; 72 h): 80 to 100 µM
O=C(C[P+]([Au-][Cl])(c1ccccc1)c1ccccc1)[O][Ti+2][O]C(=O)C[P+]([Au-][Cl])(c1ccccc1)c1ccccc1.c1cc[cH-]c1.c1cc[cH-]c1  IC50 (cell viability, XTT; 72 h): 35.5 µM
CC1(CCCOC2C(CO)OC(O)C(O)C2O)C(=O)[O][Pt][O]C1=O.NC1CCCCC1N (mixture of isomers)  IC50 (cell growth or viability, MTT): 2.4 µM
C#CCCCC[C@H](C)C[C@@H](C)C(=O)N[C@@H](C)C(=O)N1CCC[C@H]1C(=O)N[C@H](C(=O)N[C@H](C(=O)N[C@H](C(=O)N[C@@H](Cc1ccccc1)C(=O)N1CCC[C@H]1C(=O)N1CCC[C@H]1C(C)=O)C(C)C)C(C)C)C(C)C  IC50 (cell growth or viability, SRB): 1 µM

For quick reference, copied from above:
CC1(CCCOC2C(CO)OC(O)C(O)C2O)C(=O)[O][Pt][O]C1=O.NC1CCCCC1N (mixture of isomers)  IC50 (cell growth or viability, MTT): 2.4 µM
